Published values from different studies.
Values joined by “and” are separate records of one study, mostly repeats; a detail may differ. Numbers after ± are the reported error.
VHL with Elongin B/C: von Hippel-Lindau disease tumor suppressor, with Elongin B/C (VHL, Homo sapiens, UniProt P40337)

`CCN1CCN(Cc2ccc(COc3c(-c4c(C)c(F)cc5[nH]ncc45)c(C4CC4)cc4c(N5C[C@@H]6C[C@H]5CN6)nc(OC5CCOCC5)nc34)cc2)C(=O)C1` gave a viability of 95.1% and 98.4% and 106% and 108% (A-375 (KRAS wild type); CellTiter-Glo; 300 nM, 6 days; baseline: DMSO).
The dihydroorotate level of `FC(F)(F)c1ccc(C2=NOC3(NC(c4ccccc4)=NO3)N2c2ccccc2)cc1` (centres unmarked) is reported as 15 fold (Plasmodium falciparum; LC-MS; infected erythrocytes, 3D7; 10 µM, 5 h; baseline: DMSO).
`CCONC(=O)/C=C/CNCCCCN1c2cc(Cl)ccc2CCc2cnn(C)c21` has an IC50 of 5400 nM (NCI-H292; cell growth or viability, ATP luminescence).
`Cc1ncsc1-c1ccc(C2(NC(=O)C3CC(O)CN3C(=O)C(NC(=O)c3ccc(COc4c(-c5c(C)c(F)cc6[nH]ncc56)c(C5CC5)cc5c(N6CC7CC6CN7)nc(OC6CCOCC6)nc45)cc3)C(C)(C)C)CC2)cc1` (centres unmarked) gave a koff of 13 s⁻¹ (KRAS/VHL, GDP-bound (Homo sapiens, UniProt P01116+P40337, G12D); SPR, single-cycle; immobilized KRAS G12D; ternary, geometric mean, together with: VCB complex).
With `CCOC(=O)/C=C/CNCCCCN1c2cc(Cl)ccc2CCc2cnn(C)c21.O=C(O)/C=C\C(=O)O` the luminescence was 813000 a.u. and 788000 a.u. and 807000 a.u. (NCI-H292; CellTiter-Glo; 5 µM, 72 h; higher = more viable cells).
For `Cc1ncsc1-c1ccc(C(CO)NC(=O)C2CC(O)CN2C(=O)C(C(C)C)n2cc(-c3ccc(COc4c(-c5c(C)c(F)cc6[nH]ncc56)c(C5CC5)cc5c(N6CC7CC6CN7)nc(OC6CCOCC6)nc45)cc3)nn2)cc1` (centres unmarked), the Kd was 7.16 nM and 10.2 nM and 5.65 nM (VHL with Elongin B/C; SPR, single-cycle; immobilized VCB complex; binary).
With `N#C/C=C/CNCCCCN1c2ccccc2CCc2ccc(Cl)cc21.O=C(O)/C=C\C(=O)O` the half-life was 6.38 ± 1.07 h (human plasma; 5 µM).
For `Cc1ncsc1-c1ccc(C2(NC(=O)C3CC(O)CN3C(=O)C(NC(=O)c3ccc(COc4c(-c5c(C)c(F)cc6[nH]ncc56)c(C5CC5)cc5c(N6CC7CC6CN7)nc(OC6CCOCC6)nc45)cc3)C(C)C)CC2)cc1` (centres unmarked), the Kd was 692 nM and 1090 nM and 484 nM (VHL with Elongin B/C; SPR, single-cycle; immobilized VCB complex; binary).
With `Cn1ncc2c1N(CCCCNC/C=C/C#N)c1cc(Cl)ccc1CC2` the IC50 was 2550 nM (NCI-H292; cell growth or viability, ATP luminescence).
`Cc1nc(C)c(C=[N+]([O-])C(C)(C)C)nc1C` — result for “complex I activity”: 59.8% and 73.1% and 89.2% (mitochondrial complex I, rat; cerebellar granule neurons, rat; 300 µM, together with: MPP+; baseline: untreated control).
`Cn1cc(-c2cccc(CN3CCC4(CC3)COc3c4ccc4c3CN([C@H]3CCC(=O)NC3=O)C4=O)c2)cn1`: “maximum unbound thymus concentration” about 8.4 nM (mouse Crbn I391V; oral, 30 mg/kg).

Excerpt of the above:
`Cc1nc(C)c(C=[N+]([O-])C(C)(C)C)nc1C` — result for “complex I activity”: 59.8% and 73.1% and 89.2% (mitochondrial complex I, rat; cerebellar granule neurons, rat; 300 µM, together with: MPP+; baseline: untreated control).
